Measured values gathered from unrelated publications.
Each line is one published result; not all experiments were run side by side. Values joined by “and” are separate records of one study, mostly repeats; a detail may differ. ± gives the spread as reported.

For `C[Si](C)(C)O[Si](C)(C)O[Si](C)(C)C`, “entropy of phase change” read 0.191 kJ/(mol·K) (air/water; concentration not given).
Under “patients with dry skin”, `COc1cc(Nc2ncc3c(n2)-c2ccc(Cl)cc2C(c2c(F)cccc2OC)=NC3)ccc1C(=O)O` is recorded as 4% (cancer patients; oral, dose not given, all grades any attribution, with: pembrolizumab).
With `C=CCN1CC(=O)N2[C@@H](Cc3ccc(O)cc3F)C(=O)N(Cc3cccc(N4CC(N5CCN(CC)CC5)C4)n3)C[C@@H]2N1C(=O)NCc1ccccc1` the treatment-related diarrhoea was 0% (advanced solid tumour patients; oral, 15 mg twice daily, grade ≥3, dose-escalation).
With `CO[C@H]1CC[C@H](N2C(=O)CNc3ncc(-c4ccc(C(C)(C)O)nc4)nc32)CC1` the AUC(0-t) was 1350 ng·h/mL (patients, plasma; oral, 45 mg, day 15, geometric mean).
`NC(=O)c1cc(Oc2ccc(NC(=O)Nc3ccc(Cl)c(C(F)(F)F)c3)c(F)c2)cc[n+]1[O-]` gave an accuracy of 90.4% (long-term stability; mouse plasma; 750 ng/mL, 6 months, -80 °C).
The Tmax median of `CCOc1c([C@H](C)n2nc(C)c3c(N)ncnc32)cc(Cl)c(F)c1[C@@H]1CNC(=O)C1` is reported as 30 min (patients, monotherapy; oral, 30 mg once daily, cycle 1 day 15).
`Cc1nc(-c2ccc(OCC(C)C)c(C#N)c2)sc1C(=O)O` — result for “subjects with dizziness”: 2.6% (healthy Chinese subjects, fasted; oral, 40 mg single dose).
`Cc1cnc(N2CC3(CCOCC3)C2)c(C(=O)Nc2ccc(C(=O)N3CCc4cc(C(=O)Nc5c(C)cccc5F)sc4-c4ccccc43)cc2)c1` — result for “plasma level after oral dosing”: about 1 ng/mL (dog; oral gavage, 2 mg/kg).
Under “participants with any TEAE”, `CN1C(=O)[C@@H](NC(=O)c2nnc(Cc3ccccc3)[nH]2)COc2cccnc21` is recorded as 87.5% (phase I multiple ascending dose; human, male and female; oral, 50 mg, 14 days).
Under “grade ≥3 Syncope patients”, `COc1cc2nccc(Oc3ccc(NC(=O)c4cc5c(n(-c6ccccc6)c4=O)CCCC5=O)nc3)c2cc1OC` is recorded as 15% (relapsed or refractory AML; oral, all dose levels).
`COc1cc(C(=O)NC2CCN(C)CC2)c(F)cc1Nc1ncc(C(F)(F)F)c(Oc2cccc3c2C(=O)N(C)C3)n1`: “renal clearance (0-24 h)” 17.5 mL/min (human patients, urine and plasma; oral, 10 mg single dose, geometric mean).
For `CC(C)[C@H](C(=O)Nc1ccc(C(=O)NO)cc1)c1ccccc1`, the accuracy was 109% (whole blood; 10.0 ng/mL, 5 h, 4 °C, stability on ice).
With `CO[C@H]1C[C@@H]2CC[C@@H](C)[C@@](O)(O2)C(=O)C(=O)N2CCCC[C@H]2C(=O)O[C@H]([C@H](C)C[C@@H]2CC[C@@H](O)[C@H](OC)C2)CC(=O)[C@H](C)/C=C(\C)[C@@H](O)[C@@H](OC)C(=O)[C@H](C)C[C@H](C)/C=C/C=C/C=C/1C` the rectal temperature was 37 ± 0.3 °C (healthy adult horses; intravenous, 0.06 mg/kg, 24 h).
`N#Cc1cccc(-c2ccc3ncc(-c4cc(F)cc(F)c4)c(N4CCC(N)CC4)c3c2)c1O` gave a radioactivity recovered of 41% (human, urine and faeces; oral, 20 mg, 14C-labelled; reference: dose).
`O=c1oc2c(O)c(O)cc3c(=O)oc4c(O)c(O)cc1c4c23`: “apparent oral clearance” 20.5 ± 5.96 L/h (rat, plasma; oral, 1000 mg/kg extract).
For `CC(C)(C(=O)N1CCOc2c(C#N)cncc2C1)C(F)F`, “subjects with TEAE” read 0% (item: vessel puncture site hypoaesthesia; healthy humans, both sexes; oral, 20 mg single dose).
`Oc1ccc(/C=C/c2cc(O)cc(O)c2)cc1` — result for “blood urea nitrogen”: 22.3 mg/dL and 21.2 mg/dL and 15.8 mg/dL (rat, azoxymethane-injected, blood at sacrifice; 100 mg/kg).
`CC(F)(F)c1nc2nc(CO)cc(Nc3ccc(S(F)(F)(F)(F)F)cc3)n2n1` gave an AUC(0-inf), metabolite of 389000 ng·h/mL (LC-MS/MS; malaria patients, plasma; oral, 600 mg of parent drug).
`OCC1=C[C@@H](O)[C@@H]2C=CO[C@@H](O[C@@H]3O[C@H](CO)[C@@H](O)[C@H](O)[C@H]3O)[C@H]12` has an accuracy of 93.1% (post-procedure stability; rat plasma; 8 ng/mL, 3 h, room temperature).
Under “granulocyte count change”, `Cn1cc(Nc2nccc(-c3ccc4c(c3)CN(C3COC3)CC[C@H]4NC(=O)c3cn(C(C)(C)C)nn3)n2)cn1` is recorded as 8.41% (human, whole blood; 50 mg twice daily, day 7; reference: pre-dose baseline).
`CCc1cc(C(=O)NC)c2nccc(N3CCc4c(cc(Cn5ccnc5)cc4-c4cn(C)nc4C(F)(F)F)C3=O)c2c1`: “gastrocnemius weight change” -5.36% (Sprague Dawley rats; oral, 100 mg/kg twice daily, 7 days; reference: vehicle).
For `O=C(Nc1nc2cccc(-c3ccc(CN4CCS(=O)(=O)CC4)cc3)n2n1)C1CC1`, “treatment-emergent adverse events” read 0% (item: ankle fracture; human rheumatoid arthritis patients; oral, 200 mg once daily, 4 weeks, regardless of relatedness).
For `Cc1c(-c2ccc(N3CCc4cccc(C(=O)Nc5nc6ccccc6s5)c4C3)nc2C(=O)O)cnn1CC12CC3(C)CC(C)(C1)CC(OCCNCC[C@H](O)CO)(C3)C2`, “dP/dt at 50 change” read -23% (beagle dog, male, anaesthetised; intravenous infusion, 0.3 mg/kg/min, 45 min; reference: vehicle).
With `CCO[C@H]1CCN(Cc2c(OC)cc(C)c3[nH]ccc23)[C@H](c2ccc(C(=O)O)cc2)C1` the unbound AUClast was 5780 ng·h/mL (human mild hepatic impairment, plasma; oral, 200 mg single dose, median).
`CNCCOC12CC3(C)CC(C)(CC(Cn4ncc(-c5ccc(N6CCc7cccc(C(=O)Nc8nc9ccccc9s8)c7C6)nc5C(=O)O)c4C)(C3)C1)C2`: “systemic vascular resistance change” 67% (anaesthetised male beagle dogs; intravenous bolus, 0.03 mg/kg, 105 min; reference: baseline).
`Cc1cc(Nc2cc3ncccc3c(N[C@@H]3C[C@H]4CC[C@@H](C3)N4CCC#N)n2)n[nH]1`: “subjects with epistaxis” 0% (healthy human; oral, 100 mg multiple doses, 14 days).
`N#Cc1ccc2c(c1)[C@H]1CCCN(C(=O)c3ccc4[nH]cnc4c3)[C@H]1C2`: “minimum ACTH level” 1.9 pmol/L (human; 240 mg, day 7).
`O=C(O)C1=CO[C@@H](O[C@@H]2O[C@H](CO)[C@@H](O)[C@H](O)[C@H]2O)[C@@H]2C(CO)=CC[C@H]12` has an accuracy of 103% (rat plasma; 200 ng/mL, 2 weeks, -70 °C, post-preparative stability).
`Cc1coc([C@H]2C[C@H]3[C@@H](CF)SC(N)=N[C@@]3(c3ccc(F)cc3F)CO2)n1` has a brain concentration of 0.015 µM (male 129/SVE mouse, brain; subcutaneous, 80 mg/kg, 9 h).
Under “TEAE urinary sediment detected”, `O=C(O)CCC(=O)O.[2H]C([2H])([2H])Oc1cc(C)c2[nH]ccc2c1CN1CC[C@@H](C2CC2)C[C@H]1c1ccc(C(=O)O)cc1` is recorded as 0% (healthy Chinese subjects; 400 mg, single ascending dose).
Under “abdominal pain incidence”, `CNC(=O)c1ccc(-c2cnc3ncc(Cc4ccc5ncccc5c4)n3n2)cc1F` is recorded as 16% (cancer patients; oral, 600 mg twice daily, all grades RP2D expansion).
Under “brain AUC(0-1 h)”, `CCOC(=O)c1c(NC(=O)CNC(C)C)sc2c1CCCCC2` is recorded as 9690 ng·h/g (mouse, brain; intraperitoneal, 100 mg/kg).
For `COc1ccc2c(c1)CN(C(=O)CCN1CCC(Cc3ccccc3)CC1)CC[S@@+]2[O-]`, “unbound plasma concentration” read 8.86 µM (beagle dog, male, plasma; intravenous, 8 mg/kg, day 14, 14-day toxicity study).
For `Cc1nc(-c2ccc(OCC(C)C)c(C#N)c2)sc1C(=O)O`, “geometric mean ratio AUC(0-24)” read 94.5 (human, plasma; oral, 20 mg, with: verinurad 10 mg; reference: test over reference).
`c1ccc2c(c1)c1cccc3ccc4cccc2c4c31`: “literature range of log K” 5.43 to 6.41 log units (polyethylene-water partitioning; PAH compilation).
`COc1cccc(OC)c1-c1cc(C(=O)NC2(C(=O)O)C3CC4CC(C3)CC2C4)nn1-c1ccc(C(=O)N(C)CCCN(C)CCCN(C)C(=O)CN2CCN(CC(=O)[O-])CCN(CC(=O)[O-])CCN(CC(=O)[O-])CC2)cc1C(C)C.[177Lu+3]` (stereo not drawn) has a tumour-to-pancreas ratio of 16.8 (mouse HT-29 xenograft; 4 h, biodistribution; reference: tumour over pancreas).
`CCN1/C(=C/C(C)=O)Sc2ccc(F)cc21`: “diastolic blood pressure change” 106 ± 6.1% (cynomolgus monkey; oral, 10 mg/kg, 2 h post-dose; reference: pre-dose).
`CCCCOC(=O)N1CCN(C(=O)[C@H](CP(=O)(O)O)NC(=O)c2cc(N3CC[C@H](OC)C3)nc(-c3ccccc3)n2)CC1`: “change from baseline” -0.5 ± 5.4 U/L (item: alkaline phosphatase; human, serum; 16 mg, 24 h post-dose).
For `C[C@@H](O)[C@H]1C(=O)N2C(C(=O)O)=C(S[C@@H]3CN[C@H](C(=O)N(C)C)C3)[C@H](C)[C@H]12`, the plasma concentration was 1540 ng/mL (BALB/c mouse, male, plasma; intraperitoneal, dose not given, 2 h, with: combination treatment).
`NCCONC(=O)[C@@H]1CC[C@@H]2CN1C(=O)N2OS(=O)(=O)O` — result for “amount excreted in urine (0-8 h)”: 1430 mg (human male, urine; intravenous infusion, 2 g single dose).
With `Cc1nc2cccc(OCC(C)(C)C(=O)NC(C)C)c2c(N)c1C(=O)O` the PCE/NCE ratio was 0.9 (male Swiss albino CD-1 mouse, bone marrow; oral, 2000 mg/kg, 36 h).
`CO[C@@H]1[C@H](O)[C@@H](CO)O[C@H]1n1c([N+](=O)[O-])nc2c(=O)[nH]c(N)nc21` — result for “nucleoside remaining fraction”: 0.258 (depurination, RP-HPLC; citrate-phosphate buffer 0.5 mM; 1480 min, pH 2, 37 °C).
For `C[C@@H](Nc1cc(F)cc(F)c1)c1cc(C(=O)N(C)C)cc2c(=O)cc(N3CCOCC3)oc12`, “related serious adverse events” read 0% (item: Pain; advanced solid tumour patients; oral, dose not given, dose expansion).
`NC1(C(=O)N[C@@H](CCO)c2ccc(Cl)cc2)CCN(c2nc[nH]c3nccc2-3)CC1` — result for “incidence of Anaemia”: 0% (metastatic CRPC patients; 320 mg b.i.d., any grade, treatment-related, with: enzalutamide 160 mg daily).
The basophil percentage of `Nc1ncnc2c1ncn2[C@H]1C[C@@H]2OP(=O)(O)OC[C@H]3O[C@@H](n4cnc5c(N)ncnc54)C[C@@H]3OP(=O)(O)OC[C@H]2O1` is reported as 0.45 ± 0.13% (non-tumor-bearing mice, blood; intravenous, 1 mg/kg, toxicity study).
`CC(C)[N+](C)(CCOC(=O)C1c2ccccc2Oc2ccccc21)C(C)C` has a remaining compound of 46.5% (mouse, CD-1, both sexes, whole blood; 5 µM, 60 min).
`O=C(Nc1cnccc1Cl)N1CCN(Cc2ccc3c(c2)OC(F)(F)O3)CC1`: “abdominal pain incidence” 0% (multiple ascending dose; young women; 100 mg, treatment-emergent adverse events).
Under “whole-body biotransformation rate constant”, `C[Si]1(C)O[Si](C)(C)O[Si](C)(C)O[Si](C)(C)O[Si](C)(C)O[Si](C)(C)O1` is recorded as 0.008 day⁻¹ and 0.004 day⁻¹ and 0.007 day⁻¹ (IVIVE from S9; rainbow trout (Oncorhynchus mykiss)).
The AUC of `COc1ccc2nc([S@@+]([O-])Cc3ncc(C)c(OC)c3C)[nH]c2c1` is reported as 715 ng·h/mL (human, dried blood spots; oral, 10 mg omeprazole, with: voriconazole).
The radioactivity recovered of `COc1cc(N2CCC(N3CCN(C)CC3)CC2)ccc1Nc1ncc(Cl)c(Nc2ccccc2P(C)(C)=O)n1` is reported as 25% (human male, urine; oral, 180 mg; reference: dose).
`c1ccc2cc3c(ccc4ccccc43)cc2c1`: “literature range factor” 12 (PDMS-water partitioning; PAH compilation; reference: maximum over minimum K).
Under “patients with adverse event”, `Cc1cc(NC2CCN(C(=O)OC3CCN(C(=O)/C=C/CN(C)C)C3)CC2)n2ncc(C(C)C)c2n1` (stereo not drawn) is recorded as 9% (Phase I dose escalation CTCAE v4.0, item: Fatigue; patients with advanced solid tumours; dose not given, TIW dosing any grade).
For `FC(F)(F)c1ccc(CNc2ccc(Cc3c[nH]c4ncc(Cl)cc34)cn2)cn1`, “treatment-related adverse events” read 12% (item: Insomnia; patients with advanced solid tumours, all cohorts; oral, 1000 mg/day, any grade).
With `COC(=O)C1=CO[C@@H](O[C@@H]2O[C@H](CO)[C@@H](O)[C@H](O)[C@H]2O)[C@@H]2C(CO)=CC[C@H]12` the accuracy was 102% (post-procedure stability; rat plasma; 8 ng/mL, 3 h, room temperature).

Repeated from above:
Under “participants with any TEAE”, `CN1C(=O)[C@@H](NC(=O)c2nnc(Cc3ccccc3)[nH]2)COc2cccnc21` is recorded as 87.5% (phase I multiple ascending dose; human, male and female; oral, 50 mg, 14 days).
Under “grade ≥3 Syncope patients”, `COc1cc2nccc(Oc3ccc(NC(=O)c4cc5c(n(-c6ccccc6)c4=O)CCCC5=O)nc3)c2cc1OC` is recorded as 15% (relapsed or refractory AML; oral, all dose levels).
`COc1cc(C(=O)NC2CCN(C)CC2)c(F)cc1Nc1ncc(C(F)(F)F)c(Oc2cccc3c2C(=O)N(C)C3)n1`: “renal clearance (0-24 h)” 17.5 mL/min (human patients, urine and plasma; oral, 10 mg single dose, geometric mean).
